# Measurements collected from several papers.
# Compare with care: the assays were run in different laboratories.
# UniProt O95747, sequence (whole entry, looked up): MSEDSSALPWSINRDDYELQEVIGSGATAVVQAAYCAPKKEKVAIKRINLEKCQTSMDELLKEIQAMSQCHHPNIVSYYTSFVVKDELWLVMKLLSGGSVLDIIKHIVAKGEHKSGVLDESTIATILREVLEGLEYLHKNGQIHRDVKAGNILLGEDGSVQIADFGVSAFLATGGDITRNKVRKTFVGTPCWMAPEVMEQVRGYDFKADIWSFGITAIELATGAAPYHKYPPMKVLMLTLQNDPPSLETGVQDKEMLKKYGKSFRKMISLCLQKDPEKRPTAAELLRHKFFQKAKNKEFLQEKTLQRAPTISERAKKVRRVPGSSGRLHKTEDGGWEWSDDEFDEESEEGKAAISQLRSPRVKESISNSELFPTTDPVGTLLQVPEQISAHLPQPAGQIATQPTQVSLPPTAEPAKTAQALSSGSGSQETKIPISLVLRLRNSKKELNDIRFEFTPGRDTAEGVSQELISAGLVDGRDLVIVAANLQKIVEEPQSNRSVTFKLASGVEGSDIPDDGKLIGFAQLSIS
# UniProt Q9BYT3, sequence (whole entry, looked up): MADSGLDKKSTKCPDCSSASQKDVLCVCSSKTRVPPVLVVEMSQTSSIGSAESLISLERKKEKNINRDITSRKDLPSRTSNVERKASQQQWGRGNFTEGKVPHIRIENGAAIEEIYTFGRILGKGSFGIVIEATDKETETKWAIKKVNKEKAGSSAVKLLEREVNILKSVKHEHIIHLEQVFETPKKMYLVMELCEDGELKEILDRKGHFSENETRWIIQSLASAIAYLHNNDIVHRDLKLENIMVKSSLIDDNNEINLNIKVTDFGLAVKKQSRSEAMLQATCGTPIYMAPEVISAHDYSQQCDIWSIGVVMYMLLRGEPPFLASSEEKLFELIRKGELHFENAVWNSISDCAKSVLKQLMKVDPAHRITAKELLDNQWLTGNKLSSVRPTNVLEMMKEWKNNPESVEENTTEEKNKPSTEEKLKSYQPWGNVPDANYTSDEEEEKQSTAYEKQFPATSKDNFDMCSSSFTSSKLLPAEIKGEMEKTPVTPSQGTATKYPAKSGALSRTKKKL
# UniProt P10721, sequence (whole entry, unmodified, looked up): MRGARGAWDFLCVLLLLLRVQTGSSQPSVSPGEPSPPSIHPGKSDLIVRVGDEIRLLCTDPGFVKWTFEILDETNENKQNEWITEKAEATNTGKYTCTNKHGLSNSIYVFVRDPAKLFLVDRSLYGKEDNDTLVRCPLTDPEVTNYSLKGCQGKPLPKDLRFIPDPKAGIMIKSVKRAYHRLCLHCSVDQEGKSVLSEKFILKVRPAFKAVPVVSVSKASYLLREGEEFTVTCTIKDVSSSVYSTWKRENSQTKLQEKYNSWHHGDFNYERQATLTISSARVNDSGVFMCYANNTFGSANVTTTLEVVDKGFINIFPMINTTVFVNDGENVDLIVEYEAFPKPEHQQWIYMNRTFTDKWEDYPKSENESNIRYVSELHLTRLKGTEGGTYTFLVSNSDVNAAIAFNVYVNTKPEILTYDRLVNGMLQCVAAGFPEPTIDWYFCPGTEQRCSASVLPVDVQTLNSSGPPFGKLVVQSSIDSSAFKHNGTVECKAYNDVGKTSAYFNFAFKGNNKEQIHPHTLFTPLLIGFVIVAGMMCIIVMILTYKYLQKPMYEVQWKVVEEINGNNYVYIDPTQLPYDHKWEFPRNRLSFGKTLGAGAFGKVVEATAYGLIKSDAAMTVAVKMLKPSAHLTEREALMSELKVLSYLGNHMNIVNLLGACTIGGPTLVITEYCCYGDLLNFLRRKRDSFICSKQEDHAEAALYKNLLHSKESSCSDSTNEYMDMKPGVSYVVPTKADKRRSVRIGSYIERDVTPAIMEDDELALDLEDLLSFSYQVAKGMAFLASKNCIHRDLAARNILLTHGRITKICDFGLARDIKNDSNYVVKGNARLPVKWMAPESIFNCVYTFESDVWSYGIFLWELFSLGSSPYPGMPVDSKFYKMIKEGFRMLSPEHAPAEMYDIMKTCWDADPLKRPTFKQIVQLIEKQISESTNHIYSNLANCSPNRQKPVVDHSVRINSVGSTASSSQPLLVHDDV
SMILES,target or system,test,test system,setting,quantity,value
COc1ccc(-c2cc(C(F)(F)F)c3c(N)c(C(=O)Nc4c(C)cccc4C)sc3n2)cc1,Mycobacterium tuberculosis,microbial growth,H37RV,,IC50,> 100 µM
Cc1cc2c(=O)n(Cc3cccnc3)c(=S)[nH]c2cn1,Mycobacterium tuberculosis,microbial growth,H37RV,,MIC90,56.3 µM
Cc1cccc(CSc2nccc(OCCOc3cc(=O)oc4ccccc34)n2)c1,Human coronavirus 229E,cytopathic effect,A549,1.56 µM,inhibition,13.4%
COc1ncccc1-c1cnn2ccc(N3CCN(C(=O)OC(C)C)CC3)nc12,"OXSR1 (Homo sapiens, UniProt O95747)","binding, competition with immobilised ligand",,1 µM,remaining binding,100%
[2H]c1c([2H])c([C@]2([2H])CCCN2C(=O)C(C)(C)Oc2ccc3cn[nH]c3c2)c([2H])c([2H])c1C([2H])([2H])[2H],"STK33 (Homo sapiens, UniProt Q9BYT3)","binding, competition with immobilised ligand",,1 µM,remaining binding,80%
CCCCCCC/C=C/C(=O)N1C(=O)/C(=C(\O)c2ccccc2)C(=O)C1CC(C)C (stereo not shown),Burkholderia cepacia,microbial growth,ATCC25416,,MIC,> 200 µg/mL
CC(=O)OCc1cc2[nH]c(=O)n(Cc3cccnc3)c(=O)c2cc1Cl,Mycobacterium tuberculosis,microbial growth,H37RV,,MIC90,> 100 µM
O=c1cc(OCCCOc2ccnc(SCc3ccc(F)cc3)n2)c2cc(F)ccc2o1,Human coronavirus 229E,cytopathic effect,A549,12.5 µM,inhibition,41.1%
C[C@H]1COc2c(N3CCN(C)CC3)c(F)cc3c(=O)c(C(=O)O)cn1c23,Pseudomonas aeruginosa,"microbial growth, broth dilution",ATCC27853,,MIC,1 µg/mL
O=C(O)c1cn(C2CC2)c2cc(N3CCNCC3)c(F)cc2c1=O,Burkholderia cenocepacia,microbial growth,J2315,,MIC,4 µg/mL
COC(=O)c1cc(-c2cccc(NC(=O)Nc3ccc(C)cc3)c2)on1,Klebsiella pneumoniae,"microbial growth, broth dilution",BAA1705,,MIC,> 64 µg/mL
CCCCCCC/C=C/C(=O)N1C(=O)/C(=C(\O)c2ccc(F)cc2)C(=O)C1CC(C)C (stereo not shown),Burkholderia cepacia,microbial growth,ATCC25416,,MIC,> 200 µg/mL
CC1(C)S[C@@H]2[C@H](NC(=O)[C@H](N)c3ccc(O)cc3)C(=O)N2[C@H]1C(=O)O,Burkholderia cenocepacia,microbial growth,J2315,,MIC,> 256 µg/mL
Nc1ncnc2c([C@@H]3N[C@H](CO)[C@@H](O)[C@H]3O)c[nH]c12,unidentified influenza virus,"viral replication, inhibitor",MDCK,3 µM,inhibition,0.3%
Cc1cccc(NC(=O)c2sc3nc(-c4ccccc4)cc(C(F)(F)F)c3c2N)c1C,Mycobacterium tuberculosis,microbial growth,H37RV,,IC50,> 100 µM
NC(=O)c1ccc(Cn2c(=S)[nH]c3ccc(Cl)cc3c2=O)cn1,Mycobacterium tuberculosis,microbial growth,H37RV,,MIC90,> 100 µM
COc1c(N2CC3CCCNC3C2)c(F)cc2c(=O)c(C(=O)OCc3cnc([N+](=O)[O-])s3)cn(C3CC3)c12 (stereo not shown),Mycolicibacterium fortuitum,microbial growth,ATCC6841,,MIC,0.12 µM
C[C@H]1COc2c(N3CCN(C)CC3)c(F)cc3c(=O)c(C(=O)O)cn1c23,Burkholderia cenocepacia,microbial growth,J2315,,MIC,2 µg/mL
Cc1cccc(NC(=O)c2sc3nc(-c4cccs4)cc(C(F)(F)F)c3c2N)c1,Mycobacterium tuberculosis,microbial growth,H37RV,,IC50,> 100 µM
COc1ccc(OS(=O)(=O)NC(=O)CCCCc2ccccc2)cc1,Bacillus subtilis,microbial growth,ATCC23857,,MIC,200 µg/mL
CCOC(=O)C1=C[C@@H](OC(CC)CC)[C@H](NC(C)=O)[C@@H](N)C1,Human coronavirus 229E,cytopathic effect,A549,6.25 µM,inhibition,34.1%
COc1cccc(-c2cc(C(F)(F)F)c3c(N)c(C(=O)Nc4cccc(C)c4C)sc3n2)c1,Mycobacterium tuberculosis,microbial growth,H37RV,,IC50,> 100 µM
CCCCCCC/C=C/C(=O)N1C(=O)/C(=C(/C)O)C(=O)C1CO (stereo not shown),Burkholderia cepacia,microbial growth,ATCC25416,,MIC,> 200 µg/mL
COc1ccc(-c2cc(C(F)(F)F)c3c(N)c(C(=O)N4CC(C)OC(C)C4)sc3n2)cc1 (stereo not shown),Mycobacterium tuberculosis,microbial growth,H37RV,,IC50,> 50 µM
Cc1nn(C)cc1-c1nc2c(N3CCN(Cc4ccc(Cl)cc4)CC3)c(Cl)cnc2[nH]1,"EGFR (Homo sapiens, UniProt P00533, L861Q)","binding, competition with immobilised ligand",,1 µM,remaining binding,84%
Nc1c(C(=O)N2CCCC2)sc2nc(-c3ccc4c(c3)OCO4)cc(C(F)(F)F)c12,Mycobacterium tuberculosis,microbial growth,H37RV,,IC50,> 100 µM
CC(c1cncnc1)n1c(=S)[nH]c2ccc(Cl)cc2c1=O (stereo not shown),Mycobacterium tuberculosis,microbial growth,H37RV,,MIC90,≥ 100 µM
COc1ccc(-c2cc(C(F)(F)F)c3c(N)c(C(=O)Nc4ccccc4)sc3n2)cc1,Mycobacterium tuberculosis,microbial growth,H37RV,,IC50,> 100 µM
Nc1ncc(-c2nc(N3CCOCC3)nc(N3CCOCC3)n2)c(C(F)F)n1,"KIT (Homo sapiens, UniProt P10721, V559D/V654A)","binding, competition with immobilised ligand",,10 µM,remaining binding,43%
Nc1c(C(=O)N2CCOCC2)sc2nc(-c3cccnc3)ccc12,Mycobacterium tuberculosis,microbial growth,H37RV,,IC50,> 100 µM
CCCCCCC/C=C/C(=O)N1C(=O)/C(=C(\O)C2CCNCC2)C(=O)C1CC(C)C (stereo not shown),Burkholderia cepacia,microbial growth,ATCC25416,,MIC,50 µg/mL
COCc1cc2[nH]c(=S)n(Cc3cccnc3)c(=O)c2cc1Cl,Mycobacterium tuberculosis,microbial growth,H37RV,,MIC90,> 100 µM
Oc1cc(Cl)ccc1Oc1ccc(Cl)cc1Cl,Mycobacterium tuberculosis,microbial growth,H37RV,,MIC,43 µM
CCCCCCC/C=C/C(=O)N1CC(=O)/C(=C(\C)O)C1=O,Burkholderia cepacia,microbial growth,ATCC25416,,MIC,200 µg/mL
OC(Cn1cncn1)(Cn1cncn1)c1ccc(F)cc1F,Candida tropicalis,"microbial growth, broth dilution",ATCC13803,,MIC,2 µg/mL
O=c1c2cc(Cl)ccc2[nH]c(=S)n1C(CCc1ccccc1)c1cccnc1 (stereo not shown),Mycobacterium tuberculosis,microbial growth,H37RV,,MIC90,> 100 µM
COc1c(N2C[C@@H]3CCCN[C@@H]3C2)c(F)cc2c(=O)c(C(=O)O)cn(C3CC3)c12,Pseudomonas aeruginosa,microbial growth,ATCC27853,,MIC,4 µM

# Some of these lines once more:
SMILES,target or system,test,test system,setting,quantity,value
CCCCCCC/C=C/C(=O)N1C(=O)/C(=C(\O)c2ccccc2)C(=O)C1CC(C)C (stereo not shown),Burkholderia cepacia,microbial growth,ATCC25416,,MIC,> 200 µg/mL
CC(=O)OCc1cc2[nH]c(=O)n(Cc3cccnc3)c(=O)c2cc1Cl,Mycobacterium tuberculosis,microbial growth,H37RV,,MIC90,> 100 µM
O=c1cc(OCCCOc2ccnc(SCc3ccc(F)cc3)n2)c2cc(F)ccc2o1,Human coronavirus 229E,cytopathic effect,A549,12.5 µM,inhibition,41.1%
C[C@H]1COc2c(N3CCN(C)CC3)c(F)cc3c(=O)c(C(=O)O)cn1c23,Pseudomonas aeruginosa,"microbial growth, broth dilution",ATCC27853,,MIC,1 µg/mL
O=C(O)c1cn(C2CC2)c2cc(N3CCNCC3)c(F)cc2c1=O,Burkholderia cenocepacia,microbial growth,J2315,,MIC,4 µg/mL
